Experimental data from different studies.
Protocols differ between the studies behind these lines. ± marks the error that the study gave.

Cc1cc(O)c2c(C(=O)[O-])[n+]3n(c2c1)CCCC3
glucose consumption (HepG2, palmitic acid-induced insulin resistance; 10.0 µM, 24 h): 8.47 ± 0.46 mM

CO[C@@H]1[C@H](N(C)C(=O)c2ccccc2)C[C@H]2O[C@]1(C)n1c3ccccc3c3c4c(c5c6ccccc6n2c5c31)C(=O)NC4
viable CD19+ B cells (CLL patient B cells; flow cytometry; human; 1000 nM; relative to: untreated): 12%

COc1cc(CNC(=O)C[C@H](C)CCC=C(C)C)ccc1OCc1cn(-c2ccc(C#N)cc2)nn1
growth percent (OVCAR-4 ovarian cancer cells; SRB; 10 µM, 48 h): 55.3%

Cc1cc([C@H](C(=O)N2C[C@H](O)C[C@H]2C(=O)N[C@@H](CC(=O)N2CCC(N3CCC(C#Cc4ccc(C(=O)N[C@H]5C(C)(C)[C@H](Oc6ccc(C#N)c(Cl)c6)C5(C)C)cc4)CC3)CC2)c2ccc(-c3scnc3C)cc2)C(C)C)on1
time to robust apoptosis (MDA-MB-453 and HCC1428; flow cytometry; 1 µM): 48 h

COc1cc(CNC(=O)C[C@H](C)CCC=C(C)C)ccc1OCc1cn(-c2ccc(Cl)cc2Cl)nn1
growth percent (MDA-MB-468 breast cancer cells; SRB; 10 µM, 48 h): 50.4%

O=Cc1c(O)ccc2ccccc12
log2 fold change (HUVEC; RNA sequencing, refers to: DIPK2B; 75 µM, 24 h; relative to: DMSO): -3.73

COc1cc(CNC(=O)C[C@H](C)CCC=C(C)C)ccc1OCc1cn(-c2ccc(Br)cc2)nn1
growth percent (UACC-257 melanoma cells; SRB; 10 µM, 48 h): 86.3%

CC(=C(c1ccc(Cl)cc1)c1ccc(OCCN2CCOCC2)cc1)c1ccc(Cl)cc1
growth inhibition (NCI-60 tumour cell lines; 10 µM, mean over cell lines): 1.51%

COc1cc(CNC(=O)C[C@H](C)CCC=C(C)C)ccc1OCc1cn(-c2ccc(F)cc2)nn1
growth percent (OVCAR-8 ovarian cancer cells; SRB; 10 µM, 48 h): 52.3%

CC[C@H](C)[C@H](NC(=O)[C@@H](NC(=O)[C@@H](NC(=O)[C@@H](N)C(C)C)C(C)C)[C@@H](C)CC)C(N)=O
viability (PC-12; Aβ42-induced neurotoxicity, inhibitor, MTT; concentration not given, 6 h, 37 °C, peptide to Aβ42 1:1, added: Aβ42 2 µM; relative to: untreated cells): 78.6%

Fc1ccc(Nc2nc(NC3CCCCC3)c3ccccc3n2)cc1F
time to greater relaxation (HASM; magnetic twisting cytometry, refers to: cell stiffness; 1 µM, added: isoproterenol 10 µM): ~44 s

Cc1cc(/N=N/c2ccc(/N=N/c3ccc(O)c(C(=O)O)c3)cc2)c(N)cc1N
mRNA level (primary mouse articular chondrocytes; real-time PCR, refers to: Prg4; 25 µM, micromass culture): increased

C=CC(=O)Nc1cc(Nc2nccc(-c3c(-c4cccc(OC)c4)n(C)c4ccccc34)n2)c(OC)cc1N(C)CCN(C)C
protein level (H1975; Western blot, refers to: Bax; concentration not given, 24 h): increased

COc1cc(CNC(=O)C[C@H](C)CCC=C(C)C)ccc1O
growth percent (Malme-3M melanoma cells; SRB; 10 µM, 48 h): 90.3%

CC(Cc1ccc(Cl)cc1)=C(c1ccc(O)cc1)c1ccc(Cl)cc1
growth inhibition (NCI-60 tumour cell lines; 10 µM, mean over cell lines): 7%

CC(C)=C1CC[C@]2(COC(=O)c3ccccc3)[C@@H](OC(=O)c3ccccc3)/C=C(\C)CC[C@@H]3O[C@@]3(C)C[C@@H](OC(=O)c3cccnc3)[C@@H]12
glucose consumption (HepG2, palmitic acid-induced insulin resistance; 12.5 µM, 24 h): 7.9 ± 0.52 mM

Nc1ncnc2c1c(-c1ccc(Cl)cc1)cn2[C@H]1C[C@H](O)[C@@H](CO)O1
EC50 (HEK; cytotoxicity): > 200 µM

COc1ccc(-c2cc(C(F)(F)F)nc(NCc3ccc(Cl)cc3)n2)cc1OC
insulin secretion (rat INS-1 832/13 cells; 20 µM, no GLP-1, added: 15 mM glucose; relative to: DMSO): increased

COc1cc(CNC(=O)C[C@H](C)CCC=C(C)C)ccc1OCc1cn(-c2cccc([N+](=O)[O-])c2)nn1
growth percent (SW-620; SRB; 10 µM, 48 h): 80.9%

CC(C)(C)C(=O)NNC(=O)/C=C\n1cnc(-c2cc(C(F)(F)F)cc(C(F)(F)F)c2)n1
mitochondrial speed and length (hippocampal neurons; 10 nM, added: glutamate and TNFα; relative to: control): inhibited

Some of these lines once more:
Cc1cc(O)c2c(C(=O)[O-])[n+]3n(c2c1)CCCC3
glucose consumption (HepG2, palmitic acid-induced insulin resistance; 10.0 µM, 24 h): 8.47 ± 0.46 mM

CO[C@@H]1[C@H](N(C)C(=O)c2ccccc2)C[C@H]2O[C@]1(C)n1c3ccccc3c3c4c(c5c6ccccc6n2c5c31)C(=O)NC4
viable CD19+ B cells (CLL patient B cells; flow cytometry; human; 1000 nM; relative to: untreated): 12%

COc1cc(CNC(=O)C[C@H](C)CCC=C(C)C)ccc1OCc1cn(-c2ccc(C#N)cc2)nn1
growth percent (OVCAR-4 ovarian cancer cells; SRB; 10 µM, 48 h): 55.3%
